Results from different studies.
TMPRSS2: Transmembrane protease serine 2 (TMPRSS2, Homo sapiens, UniProt O15393)
Sequence of UniProt O15393 (whole entry, looked up): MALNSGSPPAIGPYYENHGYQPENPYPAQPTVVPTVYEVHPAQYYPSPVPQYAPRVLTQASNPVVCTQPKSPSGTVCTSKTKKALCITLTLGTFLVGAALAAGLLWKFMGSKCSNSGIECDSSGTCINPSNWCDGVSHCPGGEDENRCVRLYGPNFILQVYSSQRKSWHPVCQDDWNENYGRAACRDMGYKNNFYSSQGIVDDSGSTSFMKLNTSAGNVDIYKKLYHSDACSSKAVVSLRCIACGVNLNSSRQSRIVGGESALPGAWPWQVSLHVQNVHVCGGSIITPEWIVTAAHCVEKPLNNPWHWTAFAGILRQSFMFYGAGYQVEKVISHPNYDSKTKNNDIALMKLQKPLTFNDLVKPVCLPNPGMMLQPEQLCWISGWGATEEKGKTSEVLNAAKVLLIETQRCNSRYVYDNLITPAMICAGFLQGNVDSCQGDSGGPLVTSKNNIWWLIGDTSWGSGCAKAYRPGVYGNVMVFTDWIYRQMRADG
Sequence of UniProt O43683 (whole entry, looked up): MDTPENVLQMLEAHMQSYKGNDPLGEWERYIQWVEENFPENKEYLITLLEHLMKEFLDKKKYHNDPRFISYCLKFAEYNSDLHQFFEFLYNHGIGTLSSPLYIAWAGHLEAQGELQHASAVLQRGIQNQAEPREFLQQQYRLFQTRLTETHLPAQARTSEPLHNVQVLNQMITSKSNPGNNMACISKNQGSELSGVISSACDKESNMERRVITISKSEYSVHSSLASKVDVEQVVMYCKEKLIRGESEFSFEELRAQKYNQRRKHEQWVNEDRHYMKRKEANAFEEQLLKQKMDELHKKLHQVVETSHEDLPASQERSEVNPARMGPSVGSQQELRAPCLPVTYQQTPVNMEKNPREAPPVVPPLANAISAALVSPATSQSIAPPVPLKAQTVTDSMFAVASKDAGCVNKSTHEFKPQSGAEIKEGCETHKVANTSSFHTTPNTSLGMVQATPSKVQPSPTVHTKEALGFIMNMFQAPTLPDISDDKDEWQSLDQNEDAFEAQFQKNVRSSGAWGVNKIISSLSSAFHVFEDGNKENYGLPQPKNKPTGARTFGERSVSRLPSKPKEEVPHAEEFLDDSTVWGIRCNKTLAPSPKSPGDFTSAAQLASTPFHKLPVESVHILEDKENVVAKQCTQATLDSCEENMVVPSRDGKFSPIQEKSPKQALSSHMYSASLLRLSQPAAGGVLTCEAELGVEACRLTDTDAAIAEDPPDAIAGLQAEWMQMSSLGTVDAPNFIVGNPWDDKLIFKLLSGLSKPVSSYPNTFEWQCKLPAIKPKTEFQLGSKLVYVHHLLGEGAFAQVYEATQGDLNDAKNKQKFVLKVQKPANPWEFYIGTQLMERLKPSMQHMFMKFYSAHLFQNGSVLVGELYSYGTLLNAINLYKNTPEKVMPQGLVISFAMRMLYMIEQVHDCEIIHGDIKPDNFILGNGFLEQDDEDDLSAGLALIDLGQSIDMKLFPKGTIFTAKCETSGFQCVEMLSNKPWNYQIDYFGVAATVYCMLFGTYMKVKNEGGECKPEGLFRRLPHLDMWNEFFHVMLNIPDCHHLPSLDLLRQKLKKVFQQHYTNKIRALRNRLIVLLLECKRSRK
Sequence of UniProt O15197 (whole entry, looked up): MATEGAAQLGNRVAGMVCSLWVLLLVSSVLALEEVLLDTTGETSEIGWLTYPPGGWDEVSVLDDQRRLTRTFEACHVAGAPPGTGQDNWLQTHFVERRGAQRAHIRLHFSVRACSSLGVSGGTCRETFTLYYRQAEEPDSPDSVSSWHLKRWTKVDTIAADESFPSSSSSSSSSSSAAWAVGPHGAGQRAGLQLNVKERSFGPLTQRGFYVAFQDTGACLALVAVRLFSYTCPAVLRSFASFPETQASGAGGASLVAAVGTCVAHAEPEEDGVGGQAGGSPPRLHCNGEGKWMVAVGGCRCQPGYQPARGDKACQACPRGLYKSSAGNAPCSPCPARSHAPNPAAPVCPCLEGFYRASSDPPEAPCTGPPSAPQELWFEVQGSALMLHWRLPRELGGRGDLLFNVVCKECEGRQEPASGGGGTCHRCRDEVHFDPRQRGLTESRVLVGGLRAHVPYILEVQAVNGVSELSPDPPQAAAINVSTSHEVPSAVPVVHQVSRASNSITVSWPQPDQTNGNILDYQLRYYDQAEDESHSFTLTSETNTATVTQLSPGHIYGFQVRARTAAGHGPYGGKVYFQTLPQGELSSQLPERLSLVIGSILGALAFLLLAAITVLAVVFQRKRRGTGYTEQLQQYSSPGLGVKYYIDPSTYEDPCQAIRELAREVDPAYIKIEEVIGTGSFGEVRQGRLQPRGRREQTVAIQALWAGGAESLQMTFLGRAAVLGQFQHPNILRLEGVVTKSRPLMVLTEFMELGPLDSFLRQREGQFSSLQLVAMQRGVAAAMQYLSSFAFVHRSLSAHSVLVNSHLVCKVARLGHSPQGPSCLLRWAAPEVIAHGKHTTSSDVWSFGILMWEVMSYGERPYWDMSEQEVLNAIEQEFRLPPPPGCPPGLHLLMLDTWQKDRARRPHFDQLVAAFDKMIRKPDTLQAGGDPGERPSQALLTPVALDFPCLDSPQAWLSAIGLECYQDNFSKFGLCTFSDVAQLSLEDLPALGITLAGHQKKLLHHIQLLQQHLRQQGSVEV
Sequence of UniProt P06213 (whole entry, looked up): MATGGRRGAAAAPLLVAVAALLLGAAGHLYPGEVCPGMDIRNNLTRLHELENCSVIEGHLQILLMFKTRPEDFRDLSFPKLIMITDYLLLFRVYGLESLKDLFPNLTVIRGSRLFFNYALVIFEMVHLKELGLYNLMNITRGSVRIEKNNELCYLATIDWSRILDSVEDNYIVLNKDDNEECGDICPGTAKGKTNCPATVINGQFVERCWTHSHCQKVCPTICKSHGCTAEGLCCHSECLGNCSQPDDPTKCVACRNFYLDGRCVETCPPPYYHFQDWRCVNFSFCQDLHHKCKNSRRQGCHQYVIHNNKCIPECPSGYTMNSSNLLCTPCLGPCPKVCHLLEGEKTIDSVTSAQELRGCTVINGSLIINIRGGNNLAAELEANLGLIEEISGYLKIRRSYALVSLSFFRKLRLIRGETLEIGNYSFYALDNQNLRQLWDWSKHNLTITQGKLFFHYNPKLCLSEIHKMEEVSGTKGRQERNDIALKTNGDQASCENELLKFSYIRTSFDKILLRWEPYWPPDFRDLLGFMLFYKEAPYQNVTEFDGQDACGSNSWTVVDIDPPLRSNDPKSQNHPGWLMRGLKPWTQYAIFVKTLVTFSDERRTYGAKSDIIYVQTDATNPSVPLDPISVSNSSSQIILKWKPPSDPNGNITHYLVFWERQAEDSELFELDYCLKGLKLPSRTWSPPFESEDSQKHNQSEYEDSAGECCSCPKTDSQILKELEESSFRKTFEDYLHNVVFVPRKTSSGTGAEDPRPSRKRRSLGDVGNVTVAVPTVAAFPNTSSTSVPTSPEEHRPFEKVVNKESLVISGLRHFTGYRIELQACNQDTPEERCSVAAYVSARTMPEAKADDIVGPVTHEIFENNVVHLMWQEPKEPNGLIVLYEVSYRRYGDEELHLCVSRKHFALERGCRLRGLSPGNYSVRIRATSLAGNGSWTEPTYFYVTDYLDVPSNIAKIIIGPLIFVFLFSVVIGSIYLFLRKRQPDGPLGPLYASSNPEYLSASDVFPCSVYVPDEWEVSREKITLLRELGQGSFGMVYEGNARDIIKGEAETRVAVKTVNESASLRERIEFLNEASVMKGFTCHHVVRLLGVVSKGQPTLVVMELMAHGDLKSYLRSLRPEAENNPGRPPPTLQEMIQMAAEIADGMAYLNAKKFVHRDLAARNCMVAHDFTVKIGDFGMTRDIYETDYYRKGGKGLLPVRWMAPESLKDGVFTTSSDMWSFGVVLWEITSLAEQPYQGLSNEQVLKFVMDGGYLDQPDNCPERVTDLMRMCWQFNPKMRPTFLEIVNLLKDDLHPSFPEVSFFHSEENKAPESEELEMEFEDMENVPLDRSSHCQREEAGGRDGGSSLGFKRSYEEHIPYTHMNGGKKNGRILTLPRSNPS
Sequence of UniProt P19784 (whole entry, looked up): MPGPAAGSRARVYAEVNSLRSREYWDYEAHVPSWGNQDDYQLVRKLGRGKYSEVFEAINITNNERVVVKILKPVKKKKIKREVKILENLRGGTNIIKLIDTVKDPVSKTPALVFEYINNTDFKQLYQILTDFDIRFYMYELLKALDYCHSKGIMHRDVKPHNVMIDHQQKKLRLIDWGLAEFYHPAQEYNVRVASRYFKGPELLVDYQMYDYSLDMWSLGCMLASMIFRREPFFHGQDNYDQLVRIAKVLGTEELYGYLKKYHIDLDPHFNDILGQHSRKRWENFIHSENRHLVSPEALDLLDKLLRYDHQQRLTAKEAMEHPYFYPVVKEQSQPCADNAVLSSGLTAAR
Sequence of UniProt P07948 (whole entry, looked up): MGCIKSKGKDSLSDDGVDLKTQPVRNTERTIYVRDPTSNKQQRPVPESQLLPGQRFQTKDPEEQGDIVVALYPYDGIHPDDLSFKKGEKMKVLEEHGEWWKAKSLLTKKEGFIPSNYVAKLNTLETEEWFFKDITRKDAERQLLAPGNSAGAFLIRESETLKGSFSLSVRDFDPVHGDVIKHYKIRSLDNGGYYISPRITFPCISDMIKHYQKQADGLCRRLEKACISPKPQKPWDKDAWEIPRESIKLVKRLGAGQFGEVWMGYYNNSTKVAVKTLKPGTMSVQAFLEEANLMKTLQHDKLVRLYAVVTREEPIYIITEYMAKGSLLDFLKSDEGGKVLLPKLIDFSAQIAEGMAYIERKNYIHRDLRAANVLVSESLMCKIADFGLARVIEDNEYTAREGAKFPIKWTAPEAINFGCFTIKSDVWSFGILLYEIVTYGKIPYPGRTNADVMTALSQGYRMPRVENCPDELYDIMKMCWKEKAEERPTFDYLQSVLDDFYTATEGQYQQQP

`[2H]c1c([2H])c([C@]2([2H])CCCN2C(=O)C(C)(C)Oc2ccc3cn[nH]c3c2)c([2H])c([2H])c1C([2H])([2H])[2H]` gave a remaining binding of 62% (LYN (Homo sapiens, UniProt P07948); binding, competition with immobilised ligand; 1 µM).
With `CC(C)CC(=O)OC[C@H]1O[C@@](C#N)(c2ccc3c(N)ncnn23)[C@H](O)[C@@H]1O` the inhibition was 0% (Insulin receptor (INSR, Homo sapiens, UniProt P06213); cell-free assay; 20 µM).
`COc1ncccc1-c1cnn2ccc(N3CCN(C(=O)OC(C)C)CC3)nc12` gave a remaining binding of 74% (BUB1 (Homo sapiens, UniProt O43683); binding, competition with immobilised ligand; 1 µM).
`CN1C(=S)N(c2ccccc2)C(=O)/C1=C1/C(=O)N(C)c2ccc(Cl)cc21` has an inhibition of 13% (ACHE (Homo sapiens, UniProt P22303); enzyme activity, inhibitor, Ellman; 0.1 µM).
For `CC[C@@H](C)[C@@H]1CN([C@@H](CC2CCCCC2)CN2CCC[C@H]2CN2CCNC[C@@H]2CO)CCN1CCC12CC3CC(CC(C3)C1)C2`, the remaining binding was 79.2% (OPRK1 (Cavia porcellus, UniProt P41144); ligand displacement, radioligand; 0.5 µM, pH 7.5).
For `Cc1nn(C)cc1-c1nc2c(N3CCN(Cc4ccc(Cl)cc4)CC3)c(Cl)cnc2[nH]1`, the remaining binding was 73% (EPHB6 (Homo sapiens, UniProt O15197); binding, competition with immobilised ligand; 1 µM).
`N=C(N)NCCC[C@H](NC(=O)[C@H](Cc1ccc(O)cc1)NC(=O)[C@H](Cc1ccc(O)cc1)NC(=O)CCc1ccc(O)cc1)C(=O)c1nc2ccccc2s1`: “activity vs control” 83% (TMPRSS2; enzyme activity, inhibitor; 1 nM).
`Cc1[nH]c2ccc(-c3ccccc3)cc2c(=O)c1Br` has an IC50 of 702 nM (PFF0160c (Plasmodium falciparum, UniProt Q08210); enzyme activity, inhibitor, absorbance).
Under “activity vs control”, `CC(C)[C@H](NC(=O)[C@H](Cc1ccc(O)cc1)NC(=O)CC12C[C@H]3C[C@@H](C1)C[C@@H](C2)C3)C(=O)N[C@@H](CCCNC(=N)N)C(=O)c1nc2ccccc2s1` is recorded as 99% (TMPRSS2; enzyme activity, inhibitor; 1 nM).
The IC50 of `O=C(CSc1nccn1C1CCCCC1)Nc1cc(C(F)(F)F)ccc1Cl` is reported as over 10000 nM (PFF0160c (Plasmodium falciparum, UniProt Q08210, E182D); enzyme activity, inhibitor, absorbance).
Under “activity vs control”, `N=C(N)NCCC[C@H](NC(=O)[C@H](Cc1ccc(-c2ccccc2)cc1)NC(=O)[C@H](Cc1ccc(O)cc1)NC(=O)CCc1ccccc1)C(=O)c1nc2ccccc2s1` is recorded as 104% (TMPRSS2; enzyme activity, inhibitor; 1 nM).
`Nc1ncc(-c2nc(N3CCOCC3)nc(N3CCOCC3)n2)c(C(F)F)n1` gave a remaining binding of 100% (PRPF4B (Homo sapiens, UniProt Q13523); binding, competition with immobilised ligand; 10 µM).
Under “activity vs control”, `CS(=O)(=O)N[C@@H](CCC(N)=O)C(=O)N[C@@H](Cc1ccccc1)C(=O)N[C@@H](CCCNC(=N)N)C(=O)c1nccs1` is recorded as 87% (TMPRSS2; enzyme activity, inhibitor; 1 nM).
For `C#Cc1n[nH]c2c(-c3cn(C(C)c4ccccn4)c(=O)[nH]c3=O)cc(F)cc12` (centres unmarked), the inhibition was 5.4% (CSNK2A2 (Homo sapiens, UniProt P19784); enzyme activity, inhibitor; 1 µM).

Repeated from above:
`Nc1ncc(-c2nc(N3CCOCC3)nc(N3CCOCC3)n2)c(C(F)F)n1` gave a remaining binding of 100% (PRPF4B (Homo sapiens, UniProt Q13523); binding, competition with immobilised ligand; 10 µM).
